Measurements of several laboratories.
Each line is one published result; not all experiments were run side by side. Ends that are not written are not given here.
B1: phoA 1-150 (Escherichia coli, UniProt P00634); sequence looked up; chain MKQSTIALALLPLLFTPVTKARTPEMPVLENRAAQGDITAPGGARRLTGDQTAALRDSLSDKPAKNIILLIGDGMGDSEITAARNYAEGAGGFFKGIDALPLTGQYTHYALNKKTGKPDYVTDSAASATAWSTGVKTYNGALGVDIHEKD
B2: UGT1A9 (Homo sapiens, UniProt O60656); chain GKLLVVPMDGSHWFTMRSVVEKLILRGHEVVVVMPEVSWQLGRSLNCTVKTYSTSYTLEDLDREFKAFAHAQWKAQVRSIYSLLMGSYNDIFDLFFSNCRSLFKDKKLVEYLKESSFDAVFLDPFDNCGLIVAKYFSLPSVVFARGILCHYLEEGAQCPAPLSYVPRILLGFSDAMTFKERVRNHIMHLEEHLLCHRFFKNALEIASEILQTPVTEYDLYSHTSIWLLRTDFVLDYPKPVMPNMIFIGGINCHQGKPLPMEFEAYINASGEHGIVVFSLGSMVSEIPEKKAMAIADALGKIPQTVLWRYTGTRPSNLANNTILVKWLPQNDLLGHPMTRAFITHAGSHGVYESICNGVPMVMMPLFGDQMDNAKRMETKGAGVTLNVLEMTSEDLENALKAVINDKSYKENIMRLSSLHKDRPVEPLDLAVFWVEFVMRHKGAPHLRPAAHDLTWYQYHSLDVIGFLLAVVLTVAFITFKCCAYGYRKCLGKKGRVKKAHKSKTH
B3: LEMD3 755-911 (Homo sapiens, UniProt Q9Y2U8); sequence looked up; chain DKILVIPSKVWQGQAFHLDRRNSPPNSLTPCLKIRNMFDPVMEIGDQWHLAIQEAILEKCSDNDGIVHIAVDKNSREGCVYVKCLSPEYAGKAFKALHGSWFDGKLVTVKYLRLDRYHHRFPQALTSNTPLKPSNKHMNSMSHLRLRTGLTNSQGSS
UniProt P55895, sequence (whole entry, looked up): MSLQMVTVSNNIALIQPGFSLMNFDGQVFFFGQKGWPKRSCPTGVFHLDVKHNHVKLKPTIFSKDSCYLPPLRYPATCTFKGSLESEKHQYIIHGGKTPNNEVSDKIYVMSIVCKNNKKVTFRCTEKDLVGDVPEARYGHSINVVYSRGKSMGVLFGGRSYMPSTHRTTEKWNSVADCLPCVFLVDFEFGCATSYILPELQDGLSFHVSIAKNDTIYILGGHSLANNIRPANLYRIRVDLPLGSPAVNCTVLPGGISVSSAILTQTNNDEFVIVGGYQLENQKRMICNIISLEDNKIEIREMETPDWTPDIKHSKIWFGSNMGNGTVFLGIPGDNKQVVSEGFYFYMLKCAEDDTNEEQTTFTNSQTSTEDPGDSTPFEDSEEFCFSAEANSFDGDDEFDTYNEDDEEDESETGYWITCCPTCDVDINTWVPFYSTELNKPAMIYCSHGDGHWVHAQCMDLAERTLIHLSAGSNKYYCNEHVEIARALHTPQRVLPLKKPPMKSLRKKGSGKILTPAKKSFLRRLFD
UniProt P68400, sequence (whole entry, looked up): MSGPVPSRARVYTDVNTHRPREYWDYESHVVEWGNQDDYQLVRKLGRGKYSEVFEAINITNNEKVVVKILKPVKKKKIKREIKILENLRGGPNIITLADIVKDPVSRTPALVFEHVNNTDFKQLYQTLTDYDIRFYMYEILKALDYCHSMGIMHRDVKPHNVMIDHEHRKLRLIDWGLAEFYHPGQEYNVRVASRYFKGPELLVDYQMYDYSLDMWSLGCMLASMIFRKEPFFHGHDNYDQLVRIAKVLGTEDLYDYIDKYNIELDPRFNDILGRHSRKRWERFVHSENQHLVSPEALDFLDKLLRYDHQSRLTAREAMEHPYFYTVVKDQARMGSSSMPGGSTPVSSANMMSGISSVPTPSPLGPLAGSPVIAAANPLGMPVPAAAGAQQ
UniProt P00742, sequence (whole entry, looked up): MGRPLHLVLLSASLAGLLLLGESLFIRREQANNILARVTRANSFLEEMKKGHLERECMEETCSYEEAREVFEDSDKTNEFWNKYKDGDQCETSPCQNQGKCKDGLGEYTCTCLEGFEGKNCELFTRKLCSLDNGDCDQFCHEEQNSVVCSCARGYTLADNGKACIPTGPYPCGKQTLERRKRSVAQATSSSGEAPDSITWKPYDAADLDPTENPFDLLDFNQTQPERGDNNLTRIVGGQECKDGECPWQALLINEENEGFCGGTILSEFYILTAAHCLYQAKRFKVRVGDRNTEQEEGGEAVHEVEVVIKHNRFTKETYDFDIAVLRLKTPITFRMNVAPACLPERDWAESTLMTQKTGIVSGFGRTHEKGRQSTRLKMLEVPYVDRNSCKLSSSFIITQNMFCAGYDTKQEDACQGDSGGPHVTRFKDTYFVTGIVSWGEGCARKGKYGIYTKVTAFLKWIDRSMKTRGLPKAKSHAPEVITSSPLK
UniProt Q02248, sequence (whole entry, looked up): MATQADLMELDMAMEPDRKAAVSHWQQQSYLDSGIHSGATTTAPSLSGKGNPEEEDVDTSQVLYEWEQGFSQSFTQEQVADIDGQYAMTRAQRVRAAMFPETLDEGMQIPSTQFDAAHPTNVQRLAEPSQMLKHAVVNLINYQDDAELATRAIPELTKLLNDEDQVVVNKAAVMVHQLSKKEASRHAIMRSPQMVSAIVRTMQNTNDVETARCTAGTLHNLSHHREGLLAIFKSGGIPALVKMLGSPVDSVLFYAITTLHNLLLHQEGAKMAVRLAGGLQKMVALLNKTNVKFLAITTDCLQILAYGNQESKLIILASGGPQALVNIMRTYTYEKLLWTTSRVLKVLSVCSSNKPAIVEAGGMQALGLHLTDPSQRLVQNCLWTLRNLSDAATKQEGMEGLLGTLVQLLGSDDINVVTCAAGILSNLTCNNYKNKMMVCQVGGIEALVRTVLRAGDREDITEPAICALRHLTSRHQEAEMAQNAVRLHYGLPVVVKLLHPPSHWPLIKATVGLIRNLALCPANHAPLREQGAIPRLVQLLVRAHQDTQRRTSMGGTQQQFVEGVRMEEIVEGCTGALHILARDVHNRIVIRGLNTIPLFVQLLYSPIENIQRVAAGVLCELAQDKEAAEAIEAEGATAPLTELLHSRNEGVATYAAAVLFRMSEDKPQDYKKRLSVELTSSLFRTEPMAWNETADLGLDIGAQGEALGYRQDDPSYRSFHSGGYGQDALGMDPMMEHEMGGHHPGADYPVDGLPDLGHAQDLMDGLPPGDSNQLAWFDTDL
UniProt P13569, sequence (whole entry, unmodified, looked up): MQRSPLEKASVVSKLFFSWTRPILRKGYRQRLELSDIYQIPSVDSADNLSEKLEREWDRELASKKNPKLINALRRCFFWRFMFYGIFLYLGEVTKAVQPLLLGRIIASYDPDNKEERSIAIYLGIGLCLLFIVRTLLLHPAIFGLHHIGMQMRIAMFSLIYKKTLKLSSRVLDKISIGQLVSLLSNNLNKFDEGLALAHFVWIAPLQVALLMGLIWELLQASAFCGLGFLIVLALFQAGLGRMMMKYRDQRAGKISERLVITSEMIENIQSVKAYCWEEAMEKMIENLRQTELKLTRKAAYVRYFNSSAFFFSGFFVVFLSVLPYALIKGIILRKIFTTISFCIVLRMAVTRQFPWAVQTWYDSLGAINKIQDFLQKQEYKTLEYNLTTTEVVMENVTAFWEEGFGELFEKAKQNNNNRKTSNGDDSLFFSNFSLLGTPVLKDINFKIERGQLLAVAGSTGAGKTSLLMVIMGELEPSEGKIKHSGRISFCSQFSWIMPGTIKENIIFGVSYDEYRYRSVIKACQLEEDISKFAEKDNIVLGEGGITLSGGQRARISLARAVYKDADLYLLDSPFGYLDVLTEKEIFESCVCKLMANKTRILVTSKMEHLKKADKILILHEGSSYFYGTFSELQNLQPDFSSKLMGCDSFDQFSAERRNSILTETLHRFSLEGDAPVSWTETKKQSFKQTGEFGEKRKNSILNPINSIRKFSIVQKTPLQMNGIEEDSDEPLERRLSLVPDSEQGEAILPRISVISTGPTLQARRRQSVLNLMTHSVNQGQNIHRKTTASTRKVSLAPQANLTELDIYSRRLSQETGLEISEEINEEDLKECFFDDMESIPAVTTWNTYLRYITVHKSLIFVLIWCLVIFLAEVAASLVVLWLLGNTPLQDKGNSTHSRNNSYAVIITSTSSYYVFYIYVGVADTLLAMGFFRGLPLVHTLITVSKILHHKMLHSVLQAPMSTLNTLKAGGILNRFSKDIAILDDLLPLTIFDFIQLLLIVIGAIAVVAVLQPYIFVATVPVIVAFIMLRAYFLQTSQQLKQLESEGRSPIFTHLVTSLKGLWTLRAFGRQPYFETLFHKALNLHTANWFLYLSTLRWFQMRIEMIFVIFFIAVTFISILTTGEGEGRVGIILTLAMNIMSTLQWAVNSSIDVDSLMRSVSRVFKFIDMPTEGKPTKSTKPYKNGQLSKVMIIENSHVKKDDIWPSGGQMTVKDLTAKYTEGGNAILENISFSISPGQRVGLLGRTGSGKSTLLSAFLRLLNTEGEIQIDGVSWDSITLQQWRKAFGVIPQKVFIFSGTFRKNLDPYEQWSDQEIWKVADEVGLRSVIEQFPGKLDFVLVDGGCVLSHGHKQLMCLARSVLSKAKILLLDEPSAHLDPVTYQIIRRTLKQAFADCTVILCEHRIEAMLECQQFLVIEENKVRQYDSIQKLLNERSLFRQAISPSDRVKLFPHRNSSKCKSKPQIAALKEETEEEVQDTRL
UniProt Q15796, sequence (whole entry, unmodified, looked up): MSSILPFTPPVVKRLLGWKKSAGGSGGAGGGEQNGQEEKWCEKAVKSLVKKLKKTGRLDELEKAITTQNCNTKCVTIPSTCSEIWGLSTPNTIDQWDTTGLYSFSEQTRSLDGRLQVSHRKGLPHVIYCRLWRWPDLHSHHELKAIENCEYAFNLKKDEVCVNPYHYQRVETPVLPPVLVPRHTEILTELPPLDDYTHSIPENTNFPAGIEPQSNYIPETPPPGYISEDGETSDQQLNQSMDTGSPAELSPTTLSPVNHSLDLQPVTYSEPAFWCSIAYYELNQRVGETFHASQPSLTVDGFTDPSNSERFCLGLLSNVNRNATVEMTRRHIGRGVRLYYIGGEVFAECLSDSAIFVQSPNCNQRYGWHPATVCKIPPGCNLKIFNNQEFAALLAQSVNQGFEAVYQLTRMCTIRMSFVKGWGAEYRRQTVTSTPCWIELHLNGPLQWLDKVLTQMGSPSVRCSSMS
UniProt P09803, sequence (whole entry, looked up): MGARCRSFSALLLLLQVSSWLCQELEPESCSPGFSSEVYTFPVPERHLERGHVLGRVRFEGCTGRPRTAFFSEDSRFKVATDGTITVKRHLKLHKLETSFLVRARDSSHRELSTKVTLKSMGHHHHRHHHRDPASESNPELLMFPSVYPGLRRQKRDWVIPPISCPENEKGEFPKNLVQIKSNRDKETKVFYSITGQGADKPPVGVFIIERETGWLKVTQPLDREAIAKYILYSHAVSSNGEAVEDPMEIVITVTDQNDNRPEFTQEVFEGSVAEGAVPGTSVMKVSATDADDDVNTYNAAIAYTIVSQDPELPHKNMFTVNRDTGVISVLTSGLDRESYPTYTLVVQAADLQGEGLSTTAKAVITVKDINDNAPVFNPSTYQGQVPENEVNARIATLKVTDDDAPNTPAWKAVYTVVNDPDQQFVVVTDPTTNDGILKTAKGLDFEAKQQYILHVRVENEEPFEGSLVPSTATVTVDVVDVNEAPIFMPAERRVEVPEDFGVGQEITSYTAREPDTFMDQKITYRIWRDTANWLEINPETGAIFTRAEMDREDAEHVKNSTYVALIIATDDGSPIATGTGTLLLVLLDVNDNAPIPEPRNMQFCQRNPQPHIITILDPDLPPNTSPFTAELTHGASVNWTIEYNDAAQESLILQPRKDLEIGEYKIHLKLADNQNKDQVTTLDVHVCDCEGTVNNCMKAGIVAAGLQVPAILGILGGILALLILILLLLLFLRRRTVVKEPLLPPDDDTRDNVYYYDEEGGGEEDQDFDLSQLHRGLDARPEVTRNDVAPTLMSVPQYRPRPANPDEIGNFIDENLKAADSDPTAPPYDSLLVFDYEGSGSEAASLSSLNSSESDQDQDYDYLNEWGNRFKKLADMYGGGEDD

`B1 (phoA 1-150)` gave an affinity decrease of 6 fold (tig fragment M374A/Y378A/V384A/F387A (Escherichia coli); ITC; pH 7.0; baseline: TF^WT, higher = weaker binding).
The Vmax/Km of `B2 (UGT1A9)` is reported as 586 µL/min/mg (O=c1cc(-c2ccccc2O)oc2cc(O)ccc12; steady-state kinetics; pH 7.4, 37 °C).
`EIWIAQELRXIGDXFNAYYA (BIM BH3 stapled peptide 145-164; N-terminal FITC-βAla, hydrocarbon staple S5 positions 10/14, C-terminal amide)` has an EC75 of 200 nM (MCL-1 ΔNΔC (Homo sapiens); fluorescence polarisation; peptide; 20 min, added: FITC-BIM SAHBA2 50 nM).
`SERPINC1 R45E/R46E/K114E/R129E (Homo sapiens)` gave a k2 of 3700 M⁻¹ s⁻¹ (coagulation factor Xa (UniProt P00742); steady-state kinetics; room temperature, added: pentasaccharide H5).
`clr4 D280A/D281A (Schizosaccharomyces pombe)`: “relative HMTase activity” 82% (H3C1 fragment, K14 ubiquitin isopeptide; H3K9 methylation, MTase-Glo; baseline: wild-type Clr4, lower = less activity).
The inhibition of `LIYWAST` is reported as 8% (peptide, human polyclonal IgM RF MCC; concentration not given, 5 µg/mL mAb II-481 coated, added: RF at 50% max binding concentration).
The Vmax relative of `GTIKENIIGVSYDEYRYR (CFTR 500-518 delF508 (Homo sapiens, UniProt P13569))` is reported as 3 fold (CSNK2A1 (Homo sapiens, UniProt P68400); calmodulin phosphorylation, inhibitor; peptide; 160 µM, Km unchanged; baseline: without peptide, lower = more inhibition).
For `B3 (LEMD3 755-911)`, the ΔH was -8.4 kcal/mol (SMAD2 186-467 S-to-E phosphomimetic (Homo sapiens, UniProt Q15796); ITC; 20 °C).
For `RQIKIWFQNRREDGGSFWYGAMKALYG (designed peptide)`, the IC50 was > 10000 nM (CIB1 (Homo sapiens, UniProt Q99828); competition with peptide, competitor, TR-FRET; peptide).
For `ARTK(Me3)QTARKSTGGKAPRK (histone H3 residues 1-18; K4me3)`, the EC50 was 6300 nM (RAG2 397-493 (Homo sapiens, UniProt P55895); displacement of biotinylated peptide, competitor, AlphaScreen; peptide).
The EC50 of `thyrotropin-releasing hormone, pyroGlu, C-terminal amide (Gallus gallus)` is reported as 0.3 nM (protein (Gallus gallus, UniProt O93603); cAMP/PKA signaling, CRE luciferase reporter, agonist; HEK 293).
`SQSVLYS` has an inhibition of 0% (peptide, human polyclonal IgM RF SOR; concentration not given, 5 µg/mL mAb II-481 coated, added: RF at 50% max binding concentration).
For `Ctnnb1 (Mus musculus, UniProt Q02248)`, the E-cadherin coprecipitated was 0.18 a.u. (Cdh1 157-884 (Mus musculus, UniProt P09803); co-IP; HEK293T; 1.0 µg; baseline: control, higher = more E-cadherin).

For quick reference, copied from above:
For `B3 (LEMD3 755-911)`, the ΔH was -8.4 kcal/mol (SMAD2 186-467 S-to-E phosphomimetic (Homo sapiens, UniProt Q15796); ITC; 20 °C).
